Measured values collected from several papers.
Each numbered part is a random draw from the data of one study; scales do not carry over between parts.
Sequence of UniProt P00519 (whole entry, unmodified, looked up): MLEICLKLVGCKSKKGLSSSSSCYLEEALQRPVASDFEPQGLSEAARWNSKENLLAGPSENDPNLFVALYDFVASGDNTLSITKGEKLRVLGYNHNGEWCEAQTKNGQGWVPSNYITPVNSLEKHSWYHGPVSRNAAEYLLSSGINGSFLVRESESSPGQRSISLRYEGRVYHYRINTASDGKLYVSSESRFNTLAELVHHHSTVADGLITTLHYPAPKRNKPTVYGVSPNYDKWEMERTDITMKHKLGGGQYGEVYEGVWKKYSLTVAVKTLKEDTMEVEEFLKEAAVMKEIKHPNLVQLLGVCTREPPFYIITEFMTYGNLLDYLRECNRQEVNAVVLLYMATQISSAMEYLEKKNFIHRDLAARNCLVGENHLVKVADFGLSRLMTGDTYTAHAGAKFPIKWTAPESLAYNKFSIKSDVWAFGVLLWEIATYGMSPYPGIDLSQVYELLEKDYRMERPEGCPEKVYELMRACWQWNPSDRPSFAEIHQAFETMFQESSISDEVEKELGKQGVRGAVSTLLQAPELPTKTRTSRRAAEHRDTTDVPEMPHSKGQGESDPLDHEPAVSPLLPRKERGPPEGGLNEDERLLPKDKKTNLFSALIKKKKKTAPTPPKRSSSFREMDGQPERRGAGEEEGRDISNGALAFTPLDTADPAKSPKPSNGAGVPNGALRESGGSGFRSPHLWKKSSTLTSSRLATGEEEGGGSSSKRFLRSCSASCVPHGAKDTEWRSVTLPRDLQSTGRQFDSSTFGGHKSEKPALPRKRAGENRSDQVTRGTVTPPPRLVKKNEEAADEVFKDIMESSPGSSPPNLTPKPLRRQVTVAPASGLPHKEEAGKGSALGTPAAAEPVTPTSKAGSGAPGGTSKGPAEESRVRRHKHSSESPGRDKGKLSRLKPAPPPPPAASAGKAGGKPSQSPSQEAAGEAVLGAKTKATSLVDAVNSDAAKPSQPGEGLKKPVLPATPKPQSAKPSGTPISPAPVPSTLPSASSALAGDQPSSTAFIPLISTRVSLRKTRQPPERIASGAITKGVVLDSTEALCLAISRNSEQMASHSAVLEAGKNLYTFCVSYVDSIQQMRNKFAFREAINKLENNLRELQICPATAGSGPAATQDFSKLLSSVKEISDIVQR

Series 1
SMILES: O=C1CCC(N2Cc3cc(C4CCN(Cc5ccccc5)CC4)ccc3C2=O)C(=O)N1 (stereo not drawn)
Target: CRBN/Zinc finger protein Helios (Homo sapiens, UniProt Q96SW2+Q9UKS7)
Sequence of UniProt Q9UKS7 (whole entry, looked up): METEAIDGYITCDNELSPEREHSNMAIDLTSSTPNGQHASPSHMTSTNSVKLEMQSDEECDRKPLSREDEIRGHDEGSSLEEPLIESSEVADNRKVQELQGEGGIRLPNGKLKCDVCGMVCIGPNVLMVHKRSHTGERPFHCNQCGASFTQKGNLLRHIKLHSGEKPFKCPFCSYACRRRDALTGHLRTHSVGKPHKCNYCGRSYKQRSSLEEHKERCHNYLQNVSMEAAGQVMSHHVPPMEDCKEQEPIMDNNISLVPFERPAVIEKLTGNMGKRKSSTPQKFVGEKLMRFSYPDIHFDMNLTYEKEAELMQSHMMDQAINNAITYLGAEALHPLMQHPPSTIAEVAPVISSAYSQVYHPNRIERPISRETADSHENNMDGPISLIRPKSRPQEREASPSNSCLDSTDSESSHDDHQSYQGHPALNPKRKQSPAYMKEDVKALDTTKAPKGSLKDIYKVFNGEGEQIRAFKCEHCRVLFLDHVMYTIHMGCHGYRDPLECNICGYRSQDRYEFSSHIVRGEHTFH
Sequence of UniProt Q96SW2 (whole entry, looked up): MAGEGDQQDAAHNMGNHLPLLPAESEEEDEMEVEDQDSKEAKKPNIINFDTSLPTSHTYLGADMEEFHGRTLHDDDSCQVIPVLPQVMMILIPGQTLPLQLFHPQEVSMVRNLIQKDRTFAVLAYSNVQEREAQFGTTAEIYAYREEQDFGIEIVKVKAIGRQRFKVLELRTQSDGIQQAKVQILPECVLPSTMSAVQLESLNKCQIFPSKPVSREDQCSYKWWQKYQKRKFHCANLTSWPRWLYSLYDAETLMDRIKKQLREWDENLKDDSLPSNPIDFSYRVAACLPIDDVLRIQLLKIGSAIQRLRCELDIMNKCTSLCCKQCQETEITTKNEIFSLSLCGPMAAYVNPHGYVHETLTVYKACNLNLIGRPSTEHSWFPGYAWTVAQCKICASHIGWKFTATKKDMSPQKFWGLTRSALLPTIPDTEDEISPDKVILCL
Mode: degrader
Cells: HEK293
test | conditions | protein remaining [%]
HiBiT | 37.04 nM | 42.9
HiBiT kinetics | 111.1 nM, 0.5 h | 89
HiBiT kinetics | 333.3 nM, 6 h | 19.6
HiBiT kinetics | 1.372 nM, 3 h | 64
HiBiT | 111.1 nM, 6 h | 41.4
HiBiT | 0.05081 nM, 6 h | 101
HiBiT | 0.01694 nM, 6 h | 92.6
HiBiT kinetics | 37.04 nM, 6 h | 28.6
HiBiT kinetics | 0.05081 nM, 3 h | 103
HiBiT kinetics | 12.35 nM, 6 h | 27.6
HiBiT | 0.1524 nM, 6 h | 95.1
HiBiT kinetics | 0.01694 nM, 1 h | 94.2
HiBiT kinetics | 0.4572 nM, 6 h | 80.8

Series 2
Target: Calcium/calmodulin-dependent protein kinase type II subunit alpha (CAMK2A, Homo sapiens, UniProt Q9UQM7)
Sequence of UniProt Q9UQM7 (whole entry, looked up): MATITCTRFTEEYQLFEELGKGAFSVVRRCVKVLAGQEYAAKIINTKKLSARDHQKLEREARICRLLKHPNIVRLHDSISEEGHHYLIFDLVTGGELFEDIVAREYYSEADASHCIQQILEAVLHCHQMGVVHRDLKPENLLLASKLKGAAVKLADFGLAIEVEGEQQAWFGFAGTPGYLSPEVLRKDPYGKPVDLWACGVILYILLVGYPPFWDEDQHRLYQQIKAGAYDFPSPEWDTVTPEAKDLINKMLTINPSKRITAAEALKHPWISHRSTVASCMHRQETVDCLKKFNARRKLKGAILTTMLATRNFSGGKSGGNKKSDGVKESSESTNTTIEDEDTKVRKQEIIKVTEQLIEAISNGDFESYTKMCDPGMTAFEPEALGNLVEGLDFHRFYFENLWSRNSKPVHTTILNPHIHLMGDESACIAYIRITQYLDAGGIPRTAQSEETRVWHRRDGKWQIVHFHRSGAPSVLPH
Read-out: enzyme activity
Mode: inhibitor
Concentration: 10 µM
Compound | inhibition
COc1ccc(-c2cc(=O)c3c(OC)c(OC)c(OC)c(OC)c3o2)cc1OC | -45%
N[C@@H](Cc1ccc(O)c(I)c1)C(=O)O | -4%
COC(=O)Cc1ccc(C(C)(C)C)cc1 | 1%
NS(=O)(=O)c1cc2c(cc1Cl)NC(C1CC3C=CC1C3)NS2(=O)=O (stereo not drawn) | 4%
CCCc1nc(C(C)(C)O)c(C(=O)OCc2oc(=O)oc2C)n1Cc1ccc(-c2ccccc2-c2nnn[nH]2)cc1 | -7%
O=c1c2ccccc2oc2ccccc12 | -19%
CC(C)OC(=O)C(C)(C)Oc1ccc(C(=O)c2ccc(Cl)cc2)cc1 | -11%
COc1ccccc1C=O | 28%
C=C1C(=O)[C@@]23[C@H](O)C[C@@H]4C(C)(C)C(=O)CC[C@@]4(C)[C@@H]2CC[C@@H]1[C@H]3O | 1%
CN1C(=O)[C@H](O)C[C@H]1c1cccnc1 | 43%
Cc1cc(NC(=O)C2=C(O)c3ccccc3S(=O)(=O)N2C)no1 | -7%
CC/C=C\C/C=C\C/C=C\C/C=C\C/C=C\CCCC(=O)OCC | -15%
COc1cc(/C=C/C(=O)OC2[C@H](O)CC(O)(C(=O)O)C[C@H]2O)ccc1O (stereo partly drawn) | 10%
C/C=C(\C)C(=O)O[C@H]1[C@H](OC(C)=O)[C@]2(CO)[C@H](O)C[C@]3(C)C(=CC[C@@H]4[C@@]5(C)CC[C@H](O[C@@H]6O[C@H](C(=O)O)[C@@H](O[C@@H]7O[C@H](CO)[C@@H](O)[C@H](O)[C@H]7O)[C@H](O)[C@H]6O[C@@H]6O[C@H](CO)[C@@H](O)[C@H](O)[C@H]6O)[C@](C)(CO)[C@@H]5CC[C@]43C)[C@@H]2CC1(C)C | 0%
Cc1cnc(NC(=O)C2=C(O)c3ccccc3S(=O)(=O)N2C)s1 | -7%
C[C@H]1O[C@@H](O[C@H]2CC[C@]3(C)[C@H]4C=C[C@]56OC[C@@]7(CCC(C)(C)C[C@H]75)[C@@H](O)C[C@@]6(C)[C@]4(C)CC[C@H]3C2(C)C)[C@H](O)[C@@H](O[C@@H]2O[C@H](CO)[C@@H](O)[C@H](O)[C@H]2O)[C@H]1O | -10%
NCCCN(CCCCNCCCNC(=O)CCc1ccc(O)c(O)c1)C(=O)CCc1ccc(O)c(O)c1 | 1%
CCCN(CCC)CCc1cccc2c1CC(=O)N2 | -2%
COc1cc2nc(N3CCN(C(=O)C4CCCO4)CC3)nc(N)c2cc1OC (stereo not drawn) | -15%

Series 3
Target: Fibroblast growth factor receptor 2 (FGFR2, Homo sapiens, UniProt P21802)
Sequence of UniProt P21802 (whole entry, looked up): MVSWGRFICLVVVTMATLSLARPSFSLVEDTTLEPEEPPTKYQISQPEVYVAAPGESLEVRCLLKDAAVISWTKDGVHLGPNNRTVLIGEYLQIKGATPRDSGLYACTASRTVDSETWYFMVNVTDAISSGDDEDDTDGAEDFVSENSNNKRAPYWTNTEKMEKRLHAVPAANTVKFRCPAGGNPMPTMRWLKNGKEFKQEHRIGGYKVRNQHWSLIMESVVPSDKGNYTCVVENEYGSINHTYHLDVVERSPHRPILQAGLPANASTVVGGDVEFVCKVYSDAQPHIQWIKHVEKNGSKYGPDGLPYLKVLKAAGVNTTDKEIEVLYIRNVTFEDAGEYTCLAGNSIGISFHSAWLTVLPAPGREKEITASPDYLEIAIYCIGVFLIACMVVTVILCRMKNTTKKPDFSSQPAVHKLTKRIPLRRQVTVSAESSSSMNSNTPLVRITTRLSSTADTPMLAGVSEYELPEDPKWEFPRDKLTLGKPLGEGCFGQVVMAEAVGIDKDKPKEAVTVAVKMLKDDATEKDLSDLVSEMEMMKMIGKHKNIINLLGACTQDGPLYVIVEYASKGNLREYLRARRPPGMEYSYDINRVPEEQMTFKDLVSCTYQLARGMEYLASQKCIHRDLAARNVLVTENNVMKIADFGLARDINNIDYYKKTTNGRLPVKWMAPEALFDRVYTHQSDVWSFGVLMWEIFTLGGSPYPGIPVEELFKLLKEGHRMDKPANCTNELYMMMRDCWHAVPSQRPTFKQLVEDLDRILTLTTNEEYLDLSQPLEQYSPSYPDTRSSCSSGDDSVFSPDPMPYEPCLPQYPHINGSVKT
Read-out: enzyme activity
Mode: inhibitor
Concentration: 0.5 µM
Reference: control
Structure (SMILES) | remaining activity
N#CC(=C(N)Sc1ccc(N)cc1)c1ccccc1C(F)(F)F | 101%
Fc1ccc(-c2nc3n(c2-c2ccncc2)CCS3)cc1 | 106%
Oc1ccc(Nc2nc(-c3ccc(Cl)cc3)cs2)cc1 | 104%
O=C1NC(=O)C(c2c[nH]c3ccccc23)=C1c1c[nH]c2ccccc12 | 89.4%
COc1cc(Nc2c(C#N)cnc3cc(OCCCN4CCN(C)CC4)c(OC)cc23)c(Cl)cc1Cl | 58.1%
CCc1[nH]c(-c2ccc(OC)cc2)nc1-c1ccncc1 | 104%
CCCC(=O)Oc1ccc2[nH]c(C(=O)c3cc4ccccc4[nH]3)cc2c1 | 100%
NC(=O)c1ccc(N(C(N)=O)c2c(F)cccc2F)nc1-c1ccc(F)cc1F | 99.5%
Nc1ncnc2c1cnn2-c1ccccc1 | 100%
CSc1nc(-c2ccnc(N[C@@H](C)c3ccccc3)c2)c(-c2ccc(F)cc2)[nH]1 (racemic) | 95.2%
Cc1cncc2cccc(S(=O)(=O)N3CCCN(C(=O)CN)C[C@@H]3C)c12 | 98.4%
COc1ccc(S(=O)(=O)N(CCO)c2ccccc2CN(C)CC=Cc2ccc(Cl)cc2)cc1 | 98.6%
CC(=O)c1ccc(N2CCOCC2)cc1O | 108%
O=C1Cc2c([nH]c3ccc([N+](=O)[O-])cc23)-c2ccccc2N1 | 96.7%
CC[n+]1c(/C=C/N(C)c2ccccc2)n(-c2ccccc2)c2ccc(-c3nc4ccccc4s3)cc21 | 100%
Nc1nccc(-c2c(-c3ccc(F)cc3)ncn2C2CCNCC2)n1 | 104%
CC#CC(=O)Nc1cc2c(Nc3ccc(F)c(Cl)c3)ncnc2cn1 | 101%
O=S(=O)(NCCNC/C=C/c1ccc(Br)cc1)c1cccc2cnccc12 | 95.1%
Cc1cc(Nc2nc(-c3ccccc3)nc3ccccc23)n[nH]1 | 83.7%
CC(C)(C)n1nc(Cc2cccc3ccccc23)c2c(N)ncnc21 | 88.3%
Cc1ccc(NC2=CC(=O)c3sc(C)nc3C2=O)cc1 | 91%

Mixed results
Structure (SMILES) | target | test | conditions | scale | quantity | value
CCC(=NO)C(C)=Cc1ccc(F)c(C)c1 | Tyrosine-protein kinase ABL1 (ABL1, Homo sapiens, UniProt P00519, E255K) | KINOMEscan | 1 µM, E255K mutant, phosphorylated | reference: control | remaining binding | 100%

For quick reference, copied from above (series 1):
test | conditions | protein remaining [%]
HiBiT | 111.1 nM, 6 h | 41.4
HiBiT | 0.05081 nM, 6 h | 101
HiBiT | 0.01694 nM, 6 h | 92.6
HiBiT kinetics | 37.04 nM, 6 h | 28.6
HiBiT kinetics | 0.05081 nM, 3 h | 103
HiBiT kinetics | 12.35 nM, 6 h | 27.6
HiBiT | 0.1524 nM, 6 h | 95.1
